{"data": "Published values pooled from the literature", "note": "Numbered parts are unrelated; each lists some results of a single study."}
{"data": "Sample 1", "target": "Prothrombin, mature alpha-thrombin (F2, Homo sapiens, UniProt P00734)", "technique": "aptamer microarray, sandwich", "form": "DNA with 2'F-ANA", "matrix": "in vitro", "concentration": "200 nM", "setting": "whole 15-mer aptamer, many near background", "with": "Cy3 exosite-II aptamer, 400 nM", "reading": "higher = stronger binding", "oligonucleotide": "GGTTGGTGTGGTTGG"}
{"Modification": "2'F-ANA at 1 3 5 6 7 8 9 10 11 13 14", "mean fluorescence intensity [a.u.]": 47.1}
{"Modification": "2'F-ANA at 2 4 5 6 10 12 14", "mean fluorescence intensity [a.u.]": 45.5}
{"Modification": "2'F-ANA at 1 4 10 14", "mean fluorescence intensity [a.u.]": 50.7}
{"Modification": "2'F-ANA at 1 2 4 5 10 12 15", "mean fluorescence intensity [a.u.]": 51.2}
{"Modification": "2'F-ANA at 1 2 3 5 7 8 9 10 11", "mean fluorescence intensity [a.u.]": 70}
{"Modification": "2'F-ANA at 2 5 7 12", "mean fluorescence intensity [a.u.]": 178}
{"Modification": "2'F-ANA at 1 3 4 5 6 7 8 9 10 12", "mean fluorescence intensity [a.u.]": 76.3}
{"Modification": "2'F-ANA at 1 3 5 6 11 12 14 15", "mean fluorescence intensity [a.u.]": 47.2}
{"Modification": "2'F-ANA at 1 5 7 8 9 10 11 12 13", "mean fluorescence intensity [a.u.]": 46.7}
{"Modification": "2'F-ANA at 1 3 8 10 11 13 14 15", "mean fluorescence intensity [a.u.]": 57.5}
{"Modification": "2'F-ANA at 2 5 6 7 8 9 10 11 12 13 15", "mean fluorescence intensity [a.u.]": 55.9}
{"Modification": "2'F-ANA at 1 3 6 7 8 9 10 11 15", "mean fluorescence intensity [a.u.]": 78.6}
{"Modification": "2'F-ANA at 1 3 9 15", "mean fluorescence intensity [a.u.]": 325}
{"Modification": "2'F-ANA at 2 7 8 11", "mean fluorescence intensity [a.u.]": 445}
{"data": "Sample 2", "target": "Ras GTPase-activating protein-binding protein 1, C-terminal RGG region (G3BP1, Homo sapiens, UniProt Q13283)", "technique": "RNA Bind-n-Seq", "form": "RNA", "matrix": "in vitro", "concentration": "1 µM", "setting": "whole 134-nt RNA, ends assumed", "with": "150 mM KCl", "reference": "input library", "reading": "higher = stronger binding", "sequence of UniProt Q13283 (whole entry, looked up)": "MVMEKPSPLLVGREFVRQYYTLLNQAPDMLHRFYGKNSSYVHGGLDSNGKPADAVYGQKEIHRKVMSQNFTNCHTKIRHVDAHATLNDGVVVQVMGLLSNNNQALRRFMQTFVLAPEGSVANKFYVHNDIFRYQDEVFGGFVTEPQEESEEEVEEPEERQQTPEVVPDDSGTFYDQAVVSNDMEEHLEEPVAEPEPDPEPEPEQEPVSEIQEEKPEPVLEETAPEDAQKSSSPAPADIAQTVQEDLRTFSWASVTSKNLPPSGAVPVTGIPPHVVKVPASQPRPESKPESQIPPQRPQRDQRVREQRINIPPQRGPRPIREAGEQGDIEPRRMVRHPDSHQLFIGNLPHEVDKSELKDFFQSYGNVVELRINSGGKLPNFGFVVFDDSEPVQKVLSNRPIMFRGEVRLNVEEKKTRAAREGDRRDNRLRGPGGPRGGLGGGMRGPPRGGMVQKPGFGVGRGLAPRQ"}
{"Oligonucleotide": "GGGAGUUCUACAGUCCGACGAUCUGGACGAUGAAGAGGAAACAAUUGAAGAGGAGGAAGCAAAUGAAGGCGUUGUGGACCACCAAACAGAACUUUCUAAUUUAGCCAAGGAAGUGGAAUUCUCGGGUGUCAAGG", "log2 enrichment": -0.537}
{"Oligonucleotide": "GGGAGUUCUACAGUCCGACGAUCUCCUGUGCUACACAUCGUAUGUACCGAAUCAAACCCCCCCAAACCCCCAAACCCCCAAAAAAGUAUUAUGUUACGCCGUUCGGAUCUGCAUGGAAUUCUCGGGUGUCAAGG", "log2 enrichment": -0.624}
{"Oligonucleotide": "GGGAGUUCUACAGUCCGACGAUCGCAGGAAGUAAAAACAAAUGGAAAUGCUUCGGAUAGUGGCAGGGGUGGGGGUUGCGAAGGAAAGGGUGGGAUGGGAGUGGGUAAAGAGUUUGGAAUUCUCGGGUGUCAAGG", "log2 enrichment": 2.41}
{"Oligonucleotide": "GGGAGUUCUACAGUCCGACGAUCAAGUCCUGUGCUACACAUCGUAUGUACCGAAUCGGAAAAAAAGGUUUUUGGAAAGGAAAGUAUUAUGUUACGCCGUUCGGAUCUGCACUUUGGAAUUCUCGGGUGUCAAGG", "log2 enrichment": -2.32}
{"Oligonucleotide": "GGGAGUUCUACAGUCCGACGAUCUAACUUUAGAGGCGGAUCUGAUGGAUAUGGCAGUGGACGUGGAUUUGGGGAUGGCUAUAAUGGGUAUGGAGGAGGACCUGGAGGUGGCAAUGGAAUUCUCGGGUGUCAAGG", "log2 enrichment": -1.4}
{"Oligonucleotide": "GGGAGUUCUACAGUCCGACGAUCCCUGUGCUACACAUCGUAUGUACCGAAUCGGGUUUUUUUGGGUUUUUGGGAAAAAAAGGGAAAGUAUUAUGUUACGCCGUUCGGAUCUGCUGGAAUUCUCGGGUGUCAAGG", "log2 enrichment": -1.83}
{"Oligonucleotide": "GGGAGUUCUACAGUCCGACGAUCAAGUCCUGUGCUACACAUCGUAUGUACCGAAUCGGGUUUUGGGUUUUGGGGUUUUGGAAAGUAUUAUGUUACGCCGUUCGGAUCUGCACUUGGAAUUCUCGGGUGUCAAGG", "log2 enrichment": -0.94}
{"Oligonucleotide": "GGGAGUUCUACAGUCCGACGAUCUCAAGUCCUGUGCUACACAUCGUAUGUACCGAAUCGGAAAAAGGAAAGGUUUGGAAAGUAUUAUGUUACGCCGUUCGGAUCUGCACUUCCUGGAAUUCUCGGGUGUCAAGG", "log2 enrichment": -1.47}
{"Oligonucleotide": "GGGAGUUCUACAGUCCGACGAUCUCCUGUGCUACACAUCGUAUGUACCGAAUCGGGCCCCCCGGCCCCCCGGGCCCCCCGGGAAAGUAUUAUGUUACGCCGUUCGGAUCUGCAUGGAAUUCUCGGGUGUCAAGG", "log2 enrichment": -1.13}
{"Oligonucleotide": "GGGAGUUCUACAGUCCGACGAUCUGGCCCUGGUGGCAUGCGGGGAGGAAGAGGUGGACUCAUGGAUCGUGGUGGUCCCGGUGGAAUGUUCAGAGGUGGCCGUGGUGGAGACAGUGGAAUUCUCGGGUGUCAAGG", "log2 enrichment": 1.7}
{"Oligonucleotide": "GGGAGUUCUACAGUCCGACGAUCCACAGACAACACGCACCCACACAGACACAGAGCGAAGGGGUUGGGAUGGGGACAGGGUGCACAGCAGGGCGGGGUAGGACCCCAGCCCCUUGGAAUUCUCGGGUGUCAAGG", "log2 enrichment": -0.237}
{"Oligonucleotide": "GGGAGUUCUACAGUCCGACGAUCUAACUUUAGAGGAGGAUCUGAUGGAUAUGGCAGUGGACGUGGAUUUGGGGAUGGUUAUAAUGGGUAUGGAGGAGGACCUGGAGGUGGCAAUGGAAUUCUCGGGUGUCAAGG", "log2 enrichment": -0.853}
{"data": "Sample 3", "target": "Histone acetyltransferase KAT6A, winged helix 2, GST fusion (KAT6A, Homo sapiens, UniProt Q92794, residues 85-181)", "technique": "protein binding microarray", "form": "double-stranded DNA, one strand shown", "matrix": "in vitro", "concentration": "not given", "setting": "8-mer, flanks averaged, mean of 2 arrays, mostly near background", "reference": "not given", "reading": "higher = stronger binding", "Target sequence (chain)": "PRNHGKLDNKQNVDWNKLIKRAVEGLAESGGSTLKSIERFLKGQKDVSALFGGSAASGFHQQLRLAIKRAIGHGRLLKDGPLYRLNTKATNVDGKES"}
{"Oligonucleotide": "AAGTAGCC", "E-score": -0.103}
{"Oligonucleotide": "GTCTTTTA", "E-score": -0.0356}
{"Oligonucleotide": "CGCACGCA", "E-score": 0.192}
{"Oligonucleotide": "CCCTGTAG", "E-score": -0.0741}
{"Oligonucleotide": "AAGCCCCC", "E-score": 0.00147}
{"Oligonucleotide": "CGCACAAG", "E-score": 0.0618}
{"Oligonucleotide": "CGTGAATA", "E-score": -0.162}
{"Oligonucleotide": "ACGGCCCT", "E-score": -0.0654}
{"data": "Mixed results"}
{"Molecule": "PhoQ, residues 284 288 289 292 302 303 SCCLKL", "target": "PhoP, residues 12 14 15 18 19 NHTVL (Escherichia coli, UniProt P23836)", "assay": "Sort-seq, refers to: YFP reporter", "test system": "E. coli", "conditions": "PhoQ-PhoP variant library, with: 10 µM Mg2+", "scale": "reference: high Mg2+ state, higher = stronger signaling", "endpoint": "fold induction", "value": 0.779}
{"note": "Some of these lines once more (sample 2):"}
{"Oligonucleotide": "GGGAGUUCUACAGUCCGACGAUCUCAAGUCCUGUGCUACACAUCGUAUGUACCGAAUCGGAAAAAGGAAAGGUUUGGAAAGUAUUAUGUUACGCCGUUCGGAUCUGCACUUCCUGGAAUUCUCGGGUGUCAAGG", "log2 enrichment": -1.47}
{"Oligonucleotide": "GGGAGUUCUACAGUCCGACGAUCUCCUGUGCUACACAUCGUAUGUACCGAAUCAAACCCCCCCAAACCCCCAAACCCCCAAAAAAGUAUUAUGUUACGCCGUUCGGAUCUGCAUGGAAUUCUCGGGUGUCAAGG", "log2 enrichment": -0.624}
{"Oligonucleotide": "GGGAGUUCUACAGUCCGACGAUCUAACUUUAGAGGCGGAUCUGAUGGAUAUGGCAGUGGACGUGGAUUUGGGGAUGGCUAUAAUGGGUAUGGAGGAGGACCUGGAGGUGGCAAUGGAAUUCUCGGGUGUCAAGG", "log2 enrichment": -1.4}
{"Oligonucleotide": "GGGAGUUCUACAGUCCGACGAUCUAACUUUAGAGGAGGAUCUGAUGGAUAUGGCAGUGGACGUGGAUUUGGGGAUGGUUAUAAUGGGUAUGGAGGAGGACCUGGAGGUGGCAAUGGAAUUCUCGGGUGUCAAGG", "log2 enrichment": -0.853}
